# Assay results pooled from the literature.
# Each line is one published result; not all experiments were run side by side. Numbers after ± are the reported error.
# FYN: Tyrosine-protein kinase Fyn (FYN, Homo sapiens, UniProt P06241)
# Sequence of UniProt P06241 (whole entry, looked up): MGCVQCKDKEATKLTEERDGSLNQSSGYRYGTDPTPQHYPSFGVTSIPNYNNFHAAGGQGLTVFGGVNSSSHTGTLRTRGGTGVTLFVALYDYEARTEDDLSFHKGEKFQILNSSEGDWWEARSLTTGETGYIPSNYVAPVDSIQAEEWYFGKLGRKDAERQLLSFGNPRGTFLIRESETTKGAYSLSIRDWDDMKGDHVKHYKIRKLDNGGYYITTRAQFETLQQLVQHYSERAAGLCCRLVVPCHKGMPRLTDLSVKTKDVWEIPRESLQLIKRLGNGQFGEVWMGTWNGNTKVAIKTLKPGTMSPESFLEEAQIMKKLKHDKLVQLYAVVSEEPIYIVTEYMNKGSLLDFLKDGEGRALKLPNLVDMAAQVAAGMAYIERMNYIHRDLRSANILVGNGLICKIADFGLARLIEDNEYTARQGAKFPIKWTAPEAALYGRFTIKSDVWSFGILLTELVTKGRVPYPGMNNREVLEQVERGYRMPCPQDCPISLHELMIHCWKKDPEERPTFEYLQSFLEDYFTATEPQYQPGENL
# FYN isoform b: Tyrosine-protein kinase Fyn, isoform b (FYN, Homo sapiens, UniProt P06241)
SMILES,target,test,conditions,how to read,quantity,result
COc1cc(F)ccc1-c1ncnc(Nc2cccc(C[S@](C)(=N)=O)c2)n1,FYN,kinase activity,"10 µM, with: 10 µM ATP",,remaining activity,24%
CC/C(=N\NC(=O)NCc1cccc(O)c1)c1ccc(O)c(C)c1O,FYN isoform b,"kinase activity, inhibitor",0.1 µM,,inhibition,1.1%
COc1ccc(F)cc1C(=O)NCc1ccc(-c2nn([C@@H](C)C(F)(F)F)c(N)c2C(N)=O)cc1,FYN,"kinase activity, inhibitor, HotSpot radiometric","100 nM, with: ATP 10 µM",,remaining activity,66.9 ± 1.2%
[2H]c1cc(C)c(NC(=O)c2cnc(Nc3cc(N4CCC(O)CC4)nc(C)n3)s2)c(Cl)c1,FYN isoform b,,0.001 µM,,inhibition,> 50%
CC(=O)N[C@H](C(=O)N[C@@H](CC(N)=O)C(=O)N[C@@H](CCCCN)C(=O)N1CCC[C@H]1C(=O)N[C@@H](CC(C)C)C(=O)N1CCC[C@H]1C(=O)N1CCC[C@H]1C(=O)N[C@@H](CC(C)C)C(=O)N1CCC[C@H]1C(=O)N[C@H](C(=O)N[C@@H](C)C(N)=O)C(C)C)C(C)C,"Tyrosine-protein kinase Fyn, SH3 domain (FYN, Homo sapiens, UniProt P06241)","ligand binding, FTIR spectroscopy, refers to: asymmetric stretch band C","pH 7.0, FYN complex, with: 4 mM peptide",,peak area,12 ± 4%
C=CC(=O)N1CCC(COCC(=O)N2CCN(c3nc(-c4cnc(N)nc4C(F)F)nc(N4CCOC[C@@H]4C)n3)CC2)CC1,FYN,KINOMEscan,1 µM,,remaining binding,94%
Cc1nc(Nc2ncc(C(=O)Nc3c(C)cccc3Cl)s2)cc(N2CC[C@H](O)C2)n1,FYN,,0.001 µM,,inhibition,89%
C=CC(=O)N1CCC[C@@H](n2nc(-c3ccc(Oc4ccccc4)cc3)c3c(N)ncnc32)C1,FYN,"kinase activity, inhibitor, HotSpot radiometric","100 nM, with: ATP 10 µM",,remaining activity,17 ± 0.9%
[2H]c1cc(C)c(NC(=O)c2cnc(Nc3cc(N4CCCCC4)nc(C)n3)s2)c(Cl)c1,FYN isoform b,,0.01 µM,,inhibition,> 90%
C=CC(=O)N1CCCN(C(=O)c2cc(Sc3cnc(NC(=O)C4CC4)s3)c(C)cc2OC)C[C@H]1C,FYN,"kinase activity, inhibitor",concentration not given,relative to: control,remaining activity,99%
